# Measured values collected from several papers.
# Lines come from different studies, so protocols differ. “And” joins repeats or separate records; there may be more than shown. ± gives the spread as reported.
# UniProt P48146, sequence (whole entry, looked up): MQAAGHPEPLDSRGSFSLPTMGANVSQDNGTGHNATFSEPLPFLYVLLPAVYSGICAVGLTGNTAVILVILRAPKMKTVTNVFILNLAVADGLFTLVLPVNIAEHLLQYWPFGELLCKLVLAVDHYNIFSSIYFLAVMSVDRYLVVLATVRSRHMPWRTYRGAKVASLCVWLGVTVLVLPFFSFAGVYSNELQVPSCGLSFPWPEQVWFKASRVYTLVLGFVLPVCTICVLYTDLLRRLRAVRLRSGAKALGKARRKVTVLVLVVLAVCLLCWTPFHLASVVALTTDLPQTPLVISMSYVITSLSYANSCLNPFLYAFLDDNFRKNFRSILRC
# UniProt P48047, sequence (whole entry, looked up): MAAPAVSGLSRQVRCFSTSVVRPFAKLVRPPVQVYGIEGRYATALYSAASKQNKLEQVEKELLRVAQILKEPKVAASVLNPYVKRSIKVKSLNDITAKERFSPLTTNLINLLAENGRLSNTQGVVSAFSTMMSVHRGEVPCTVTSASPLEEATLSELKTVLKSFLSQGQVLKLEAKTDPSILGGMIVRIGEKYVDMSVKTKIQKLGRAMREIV
# UniProt Q14012, sequence (whole entry, looked up): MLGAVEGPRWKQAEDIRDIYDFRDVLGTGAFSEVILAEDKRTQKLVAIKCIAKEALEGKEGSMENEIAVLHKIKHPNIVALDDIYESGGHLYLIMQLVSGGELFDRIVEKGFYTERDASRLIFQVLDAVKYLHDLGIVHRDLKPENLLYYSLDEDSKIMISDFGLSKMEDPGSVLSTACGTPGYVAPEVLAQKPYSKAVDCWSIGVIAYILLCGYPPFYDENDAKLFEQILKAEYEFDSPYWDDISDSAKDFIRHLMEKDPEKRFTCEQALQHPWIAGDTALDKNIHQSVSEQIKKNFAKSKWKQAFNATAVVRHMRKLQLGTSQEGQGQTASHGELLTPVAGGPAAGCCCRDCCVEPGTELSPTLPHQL
Compound,target or system,assay,system,setting,scale,endpoint,result
Cn1nccc1Nc1nccc(-c2cc3c(s2)C(C)(C)N(CCN2CCOCC2)C3=O)n1,HCT116,IncuCyte,,"concentration not given, 28 (unit not given)",,PI-positive cells,9.67 count and 7.67 count and 11.8 count
CO[C@H]1C[C@@H]2CC[C@@H](C)[C@@](O)(O2)C(=O)C(=O)N2CCCC[C@H]2C(=O)O[C@H]([C@H](C)C[C@@H]2CC[C@@H](OC(=O)NCCOCCOCCOCCOCCOCCOCCOCCOCCC(=O)N3CCc4cc(Cn5nc(-c6ccc7oc(N)nc7c6)c6c(N)ncnc65)ccc4C3)[C@H](OC)C2)C[C@@H](O)[C@H](C)/C=C(\C)[C@@H](O)[C@@H](OC)C(=O)[C@H](C)C[C@H](C)/C=C/C=C/C=C/1C,,,patients with advanced solid tumours,"intravenous, 12 mg weekly, any grade",,decreased appetite incidence,8.3%
COc1cc2c(Oc3ccc4[nH]c(C)cc4c3F)ccnc2cc1OCC1(N)CC1,,,paediatric recurrent refractory sarcoma,10 mg,,grade 3 abdominal pain,0%
O=c1cc(-c2ccccc2)oc2c(O)c(O)ccc12,"SH-SY5Y Aβ-GFP cells, scrambled shRNA",,,5 µM,,neurite length,32.5 to 36.5 µm
COc1ccc(C(=O)O[C@H]2CC[C@@]3(C)[C@@H]4CC[C@H]5[C@]6(O)C[C@H](O)[C@@]7(O)[C@@H](CN8C[C@@H](C)CC[C@H]8[C@@]7(C)O)[C@]6(O)C[C@@]53O[C@]24O)cc1OC,hiPSC glutamatergic neurons,"mean firing rate, multi-electrode array",,,,lowest effective concentration,0.01 µM
COc1c(C)c2c(c(O)c1C/C=C(\C)CCC(=O)O)C(=O)OC2,WSU-NHL,cell proliferation,,,,IC50,74.1 nM
COc1cc(CCC[P+](c2ccccc2)(c2ccccc2)c2ccccc2)c(OC)c2c1OCO2.[I-],SF-295,SRB,,,,TGI,-5.13 log M
Nc1ncnc2c1ncn2[C@@H]1O[C@@H]2COP(=O)(O)O[C@H]3[C@@H](O)[C@H](n4cnc5c(=O)[nH]cnc54)O[C@@H]3COP(=O)(O)O[C@H]2[C@H]1O,HFF-1,"RNA sequencing Reactome analysis, measured: Reactome R-HSA-197264",,added: West Nile virus infection,"reference: West Nile virus infected cells, upregulated pathway",pathway fold enrichment,9.69
CC[C@H](C)[C@@H]1NC(=O)[C@@H]2CCCN2C(=O)[C@H](CC(C)C)NC(=O)[C@H](CC(C)C)NC(=O)CNC(=O)[C@@H](NC(=O)[C@@H](NC(=O)[C@H](CC(=O)O)NC(=O)CNC(=O)[C@@H](NC(=O)[C@H](C)NC(=O)CNC(=O)[C@H](CCCCN)NC(=O)[C@H](CC(C)C)NC(=O)[C@H](CC(C)C)NC(=O)[C@H](CCCCN)NC(=O)CNC(=O)[C@@H](NC(=O)[C@@H](N)CC(C)C)C(C)C)C(C)C)C(C)C)CSSC[C@@H](C(=O)O)NC1=O,,"RNA-seq, measured: Btg2","mouse, traumatic brain injury model, frontal cortex and hippocampus",dose not given,reference: TBI alone,log2 fold change,-1.6
COc1ccc(N2C(=O)N(c3c(C)cccc3Cl)Cc3cnc(Nc4ccc(C5CCN(C)CC5)cc4OC)nc32)nc1,"CAMK1 (Homo sapiens, UniProt Q14012)","kinase activity, inhibitor",,"0.5 µM, kinase CAMK1A",,inhibition,4.26%
COc1c(CCC[P+](c2ccccc2)(c2ccccc2)c2ccccc2)cc2c(c1OC)OCO2.[I-],SF-539,SRB,,,,LC50,> -4 log M
C[C@]12CC[C@H](O)C[C@H]1CC[C@@H]1[C@@H]2CC[C@]2(C)[C@@H](c3ccc(=O)oc3)CC[C@]12O,MCF7,"RT-qPCR, measured: NRIP1",,"50 nM, 48 h, without estradiol, unit not given",reference: untreated,mRNA level,0.197 and 0.184 and 0.187
CC1(C)CN(CCCCC(=O)N[C@H](Cc2ccc(O)c(I)c2)C(=O)N[C@H](Cc2ccccc2)C(=O)N[C@H](CCCCNC(=O)CCCCCCC(=O)NCCCC[C@H](NC(=O)N[C@@H](CCC(=O)O)C(=O)O)C(=O)O)C(=O)O)CC[N]2CC(C)(C)[S][Tc]2(=[O])[S]1 (stereo partly shown) [technetium-99m labelled],LNCaP,,,"25 nM, 1 h, 37 °C",,internalized activity,2.17 ± 0.06 %AD/mg protein
CC(C)N1CCC(NC2CCN(c3cccc(-c4cc5cc(F)ccc5[nH]4)c3)CC2)CC1,SF-295,,,,,GI50,1870 nM
Oc1ccc(C(c2ccc(O)cc2)(C(F)(F)F)C(F)(F)F)cc1,HepG2 spheroids,planimetry,,"10 µM, 0 to 24 h",reference: mean area of 72 h spheroids,spheroid area increase,126%
C/C=C(/C)C(=O)O[C@H]1C(C)=C2[C@H]([C@@H]1OC(=O)CCCCCCC)[C@@](C)(OC(C)=O)C[C@H](OC(=O)CCC)[C@@]1(O)[C@H]2OC(=O)[C@@]1(C)O,HEK-293T,"RNA-seq GSEA, measured: Hallmark complement",,"500 nM, 6 h",direction not given,normalized enrichment score,1.15
Oc1cc(Cl)ccc1Oc1ccc(Cl)cc1Cl,MYBPC3 iPSC cardiomyocytes,plate-normalised,,"concentration not given, 24 h, hit retest",,MyBP-C level,1.1%
Cc1nn(-c2nc3ccc(Cl)c(Cl)c3[nH]2)c(O)c1C1OC(=O)c2ccccc21 (stereo not shown),RAW-ISG,CCK-8,,100 µM,,viability,23.9% and 13.1% and 16.6% and 24.1%
COc1cc(Nc2ncc(F)c(Nc3ccc4c(n3)NC(=O)C(C)(C)O4)n2)cc(OC)c1OC,"NPBWR2 (Homo sapiens, UniProt P48146)",,,,,IC50,> 10000 nM
Oc1ccc(C2(c3ccc(O)cc3)c3ccccc3-c3ccccc32)cc1,HepG2 spheroids,Hoechst flow cytometry,,"40 µM, 24 h",,S phase cells,5.28 ± 1.33%
CNC(=O)Oc1cccc2ccccc12,SH-SY5Y,"neurite outgrowth inhibition, phase-contrast imaging",,"24 h, nominal concentration",,EC10,3.42 µM
C[C@H]1CN(c2n[nH]c3nc(N[C@H]4CC[C@H](NS(=O)(=O)CCC(F)(F)F)CC4)ncc23)CCO1,"ATP synthase peripheral stalk subunit OSCP, mitochondrial (Homo sapiens, UniProt P48047)","Kinobeads competition, measured: ATP5O",,"0.8 µM, unit not given",reference: vehicle,remaining binding,1.41
Cc1c2ccncc2c(C)c2c1[nH]c1ccccc12,KKU-M213,SRB,,,reference: normal over KKU-M213 IC50,selectivity index,0.86
C=CC(=O)Nc1cc(Nc2nccc(-c3cn(C)c4ccccc34)n2)c(OC)cc1N(C)CCN(C)C,NCI-H1975 (EGFR L858R/T790M),"cell growth, CellTiter-Glo",,72 h,,GI50,343 nM
C[C@@H](O)[C@@H](CO)NC(=O)[C@@H](CCCNC(=N)N)NC(=O)[C@@H]1CCCN1C(=O)[C@@H]1CSSC[C@H](NC(=O)[C@H](Cc2ccccc2)NC(=O)CN2CCN(CC(=O)O)CCN(CC(=O)O)CCN(CC(=O)O)CC2)C(=O)N[C@@H](Cc2ccc(O)cc2)C(=O)N[C@@H](Cc2ccccc2)C(=O)N[C@@H](CCC(N)=O)C(=O)N[C@@H](CC(N)=O)C(=O)N1 [gallium-68 labelled],,,"Wistar rat, healthy, sublingual gland","intravenous, 8 MBq, 30 min",,tissue uptake,0.56 %ID/g
CN1CC[C@@H](c2c(O)cc(O)c3c(=O)cc(-c4ccc(C(F)(F)F)cc4Cl)oc23)[C@@H]1CO,,measured: urinary incontinence,AML,"oral, 150 mg, grade 3 to 4, intermittent dosing",,patients with adverse event,25%
O=c1c(O)c(-c2ccc(O)c(O)c2)oc2cc(O)cc(O)c12,"SH-SY5Y Aβ-GFP cells, scrambled shRNA",,,5 µM,,neurite length,32.5 to 36.5 µm
CC[C@H](C)[C@H](NC(=O)[C@H](Cc1ccccc1)NC(=O)[C@H](CCC(=O)O)NC(=O)[C@H](CCCNC(=N)N)NC(=O)[C@H](C)NC(=O)[C@H](C)NC(=O)[C@H](CCC(N)=O)NC(=O)[C@H](CCC(=O)O)NC(=O)[C@H](CCC(=O)O)NC(=O)[C@H](CC(C)C)NC(=O)[C@H](Cc1ccc(O)cc1)NC(=O)[C@H](CO)NC(=O)[C@H](CO)NC(=O)[C@@H](NC(=O)[C@H](CC(=O)O)NC(=O)[C@H](CO)NC(=O)[C@@H](NC(=O)[C@H](Cc1ccccc1)NC(=O)[C@@H](NC(=O)CNC(=O)[C@H](CCC(=O)O)NC(=O)[C@H](C)NC(=O)CCc1c[nH]cn1)[C@@H](C)O)[C@@H](C)O)C(C)C)C(=O)N[C@@H](C)C(=O)N[C@@H](Cc1c[nH]c2ccccc12)C(=O)N[C@@H](CC(C)C)C(=O)N[C@H](C(=O)N[C@@H](CCCNC(=N)N)C(=O)NCC(=O)N[C@@H](CCCNC(=N)N)C(=O)N[C@@H](CCCCNC(=O)COCCOCCNC(=O)COCCOCCNC(=O)CC[C@H](NC(=O)CCCCCCCCCCCCCCCCC(=O)O)C(=O)O)C(=O)NCC(=O)NCC(=O)N[C@@H](CO)C(=O)N[C@@H](CCCCNc1c(NCCCCCN(O)C(=O)CCC(=O)NCCCCCN(O)C(=O)CCC(=O)NCCCCCN(O)C(C)=O)c(=O)c1=O)C(=O)O)C(C)C [zirconium-89 labelled],,gamma counting,"rat, skin of neck","subcutaneous, 3 nmol/kg, 24 h",,tissue uptake,0.27 %ID/g

# A few entries again:
Compound,target or system,assay,system,setting,scale,endpoint,result
C[C@@H](O)[C@@H](CO)NC(=O)[C@@H](CCCNC(=N)N)NC(=O)[C@@H]1CCCN1C(=O)[C@@H]1CSSC[C@H](NC(=O)[C@H](Cc2ccccc2)NC(=O)CN2CCN(CC(=O)O)CCN(CC(=O)O)CCN(CC(=O)O)CC2)C(=O)N[C@@H](Cc2ccc(O)cc2)C(=O)N[C@@H](Cc2ccccc2)C(=O)N[C@@H](CCC(N)=O)C(=O)N[C@@H](CC(N)=O)C(=O)N1 [gallium-68 labelled],,,"Wistar rat, healthy, sublingual gland","intravenous, 8 MBq, 30 min",,tissue uptake,0.56 %ID/g
COc1ccc(N2C(=O)N(c3c(C)cccc3Cl)Cc3cnc(Nc4ccc(C5CCN(C)CC5)cc4OC)nc32)nc1,"CAMK1 (Homo sapiens, UniProt Q14012)","kinase activity, inhibitor",,"0.5 µM, kinase CAMK1A",,inhibition,4.26%
C=CC(=O)Nc1cc(Nc2nccc(-c3cn(C)c4ccccc34)n2)c(OC)cc1N(C)CCN(C)C,NCI-H1975 (EGFR L858R/T790M),"cell growth, CellTiter-Glo",,72 h,,GI50,343 nM
COc1c(CCC[P+](c2ccccc2)(c2ccccc2)c2ccccc2)cc2c(c1OC)OCO2.[I-],SF-539,SRB,,,,LC50,> -4 log M
CC(C)N1CCC(NC2CCN(c3cccc(-c4cc5cc(F)ccc5[nH]4)c3)CC2)CC1,SF-295,,,,,GI50,1870 nM
